{"data": "Experimental data collected from several papers", "organism": "Plasmodium falciparum", "note": "Protocols differ between the studies behind these lines. ± gives the spread as reported."}
{"Compound": "CNC(=O)c1c(F)cccc1Nc1nc(Nc2cc3c(cc2OC)CCN3C(=O)CN(C)C)nc2[nH]ccc12", "read-out": "parasite growth", "strain": "D6", "notes": "blood stage", "EC50": "2510 nM"}
{"Compound": "Cn1c(=O)c2cc(C(=O)NCCCN3CCCCCC3)sc2c2ccccc21", "read-out": "parasite growth", "notes": "blood stage", "EC50": "268 nM"}
{"Compound": "Cc1ccc(NC(C)(C)C(=O)Nc2ccc(F)c(Cl)c2)cc1S(=O)(=O)N1CC2CC1CO2 (stereo not drawn)", "read-out": "parasite growth", "strain": "3D7", "notes": "blood stage", "EC50": "14 nM"}
{"Compound": "OC(CN1CCC2(CC1)CC(O)c1ccc3ccccc3c1O2)c1ccc(F)c(F)c1 (stereo not drawn)", "strain": "3D7 chloroquine-sensitive", "time": "72 h", "EC50": "390 nM"}
{"Compound": "CC(C)C[C@@H](/C=C/S(C)(=O)=O)NC(=O)[C@H](CC(C)C)NC(=O)[C@H](Cc1ccc2ccccc2c1)NC(=O)CN1CCOCC1", "method": "flow cytometry YOYO-1", "strain": "W2 ring stage", "time": "72 h no washout", "EC50": "90 ± 16 nM"}
{"Compound": "Cc1ccc(NCC(=O)N2CCOCC2)cc1S(=O)(=O)N1CCOCC1", "read-out": "parasite growth", "strain": "3D7", "notes": "blood stage", "EC50": "> 50000 nM"}
{"Compound": "COC[C@H](NC(=O)[C@H](CCc1ccccc1)NC(=O)c1cnc(C)s1)C(=O)N[C@H](/C=C/S(C)(=O)=O)Cc1cccs1", "method": "flow cytometry YOYO-1", "strain": "W2 ring stage", "time": "72 h no washout", "EC50": "3 ± 0.7 nM"}
{"Compound": "Cc1ccc(CNC(=O)[C@@H]2Cc3cccc(c3)Oc3cccc(c3)C[C@H](N)C(=O)N[C@@H](CCc3ccccc3)C(=O)N2)cc1", "time": "1 h pulse", "notes": "synchronized trophozoite stage", "EC50": "4380 nM"}
{"Compound": "Cc1ccc(NC(C)(C)C(=O)Nc2ccc(F)c(Cl)c2)cc1S(=O)(=O)N1CC2(COC2)C1", "read-out": "parasite growth", "strain": "3D7", "notes": "blood stage", "EC50": "120 nM"}
{"Compound": "O=C1C2=C(Nc3ccccc3SC2C2CC2)c2ccccc21 (racemic)", "read-out": "growth", "method": "[3H]hypoxanthine incorporation", "strain": "3D7", "EC50": "48 nM"}
{"Compound": "COc1cncc(-c2cc(F)cc(CNC(=O)c3cc(N4CC[C@@](C#N)(C5CC5)C4=O)cc(C)n3)c2)c1", "read-out": "asexual blood-stage growth", "method": "SYBR Green I", "strain": "3D7", "time": "48 h", "EC50": "284 nM"}
{"Compound": "COC(=O)c1[nH]c(C(=O)OC)c2c1-c1c[nH]c3ccc(Cl)c(c13)C21C=Nc2ccc(Cl)cc21 (racemic)", "read-out": "parasite growth", "method": "SYBR Green", "strain": "3D7", "time": "72 h", "notes": "blood stage", "EC50": "2800 nM"}
{"Compound": "Cc1ccc(NCC(=O)Nc2ccc(F)c(Cl)c2)cc1S(=O)(=O)N1CC2CCC(C1)O2", "read-out": "parasite growth", "strain": "3D7", "notes": "blood stage", "EC50": "760 nM"}
{"Compound": "O=c1cc[s+]([O-])c2ccc(Cl)cc12 (racemic)", "read-out": "parasite growth", "strain": "3D7", "time": "72 h", "notes": "blood stage", "EC50": "107000 nM"}
{"Compound": "N#Cc1ccc(C2Sc3ccccc3NC3=C2C(=O)c2ccccc23)cc1 (racemic)", "read-out": "growth", "method": "[3H]hypoxanthine incorporation", "strain": "3D7", "EC50": "790 nM"}
{"Compound": "Cc1ccc(CNC(=O)[C@@H](NC(=O)[C@H](CCc2ccccc2)NC(=O)[C@H](CCc2ccccc2)N(C)C)C(C)C)cc1", "read-out": "parasite growth", "strain": "D10", "time": "72 h", "notes": "blood stage", "EC50": "277 nM"}
{"Compound": "COC(=O)c1[nH]c(C(=O)OC)c2c1-c1c[nH]c3ccc(Cl)c(c13)C21CN(C)c2ccc(Cl)cc21 (racemic)", "read-out": "parasite growth", "method": "SYBR Green", "strain": "3D7", "time": "72 h", "notes": "blood stage", "EC50": "3700 nM"}
{"Compound": "Nc1ccc(C(=O)/C=C/c2ccccc2F)cc1", "read-out": "parasite growth", "strain": "3D7", "time": "48 h", "notes": "blood stage", "EC50": "12000 nM"}
{"Compound": "O=C1C(Cc2ccc(C(F)(F)F)cc2)=CS(=O)(=O)c2ccccc21", "read-out": "parasite growth", "strain": "3D7", "time": "72 h", "notes": "blood stage", "EC50": "33900 nM"}
{"Compound": "CC(C)C[C@@H](/C=C/S(C)(=O)=O)NC(=O)[C@H](CC(C)C)NC(=O)[C@H](Cc1cccc2ccccc12)NC(=O)CN1CCOCC1", "method": "flow cytometry YOYO-1", "strain": "W2 ring stage", "time": "72 h no washout", "EC50": "10 ± 2 nM"}
{"Compound": "COc1cc2[nH]c(C)c(-c3ccc(Oc4ccc(OC(F)(F)F)cc4)cc3)c(=O)c2cc1Cl", "read-out": "parasite growth", "method": "3H-hypoxanthine incorporation", "strain": "Dd2", "EC50": "21 nM"}
{"Compound": "Cc1cc(N2CC[C@](C#N)(C3(C)CC3)C2=O)cc(C(=O)NCc2cc(F)cc(-c3cnn(C)c3)c2)n1", "read-out": "asexual blood-stage growth", "method": "SYBR Green I", "strain": "3D7", "time": "48 h", "EC50": "2760 nM"}
{"Compound": "O=C(CNc1ccc(F)c(S(=O)(=O)N2CCOCC2)c1)Nc1ccc(F)c(Cl)c1", "read-out": "parasite growth", "strain": "3D7", "notes": "blood stage", "EC50": "580 nM"}
{"Compound": "O=c1cc[s+]([O-])c2ccccc12 (single isomer, unassigned; (-))", "read-out": "parasite growth", "strain": "3D7", "time": "72 h", "notes": "blood stage", "EC50": "91300 nM"}
{"Compound": "Cc1ccc(NCC(=O)Nc2ccc(F)c(Cl)c2)cc1S(=O)(=O)N1CCOCC1", "read-out": "parasite growth", "strain": "3D7", "notes": "blood stage", "EC50": "140 nM"}
{"Compound": "Cc1ccc(CNC(=O)[C@@H](NC(=O)[C@H](CCc2ccccc2)NC(=O)[C@H](CCc2ccccc2)N(C)Cc2cnccn2)C(C)C)cc1", "read-out": "parasite growth", "strain": "D10", "time": "72 h", "notes": "blood stage", "EC50": "104 nM"}
{"Compound": "CCN(CC)S(=O)(=O)c1cc(NCC(=O)Nc2ccc(F)c(Cl)c2)ccc1C", "read-out": "parasite growth", "strain": "3D7", "notes": "blood stage", "EC50": "270 nM"}
{"Compound": "COc1cc(C(=O)N(C)C)ccc1-c1cc2nccc(-c3ccc4cnccc4c3)c2o1", "read-out": "parasite growth", "strain": "3D7", "notes": "blood stage", "EC50": "330 nM"}
{"Compound": "Cc1ccc(NCC(=O)Nc2ccccc2)cc1S(=O)(=O)N1CCOCC1", "read-out": "parasite growth", "strain": "3D7", "notes": "blood stage", "EC50": "1450 nM"}
{"Compound": "CCCCCCCC1=CC(=O)c2ccccc2S1(=O)=O", "read-out": "parasite growth", "strain": "3D7", "time": "72 h", "notes": "blood stage", "EC50": "53700 nM"}
{"note": "Some of these lines once more:"}
{"Compound": "COc1cncc(-c2cc(F)cc(CNC(=O)c3cc(N4CC[C@@](C#N)(C5CC5)C4=O)cc(C)n3)c2)c1", "read-out": "asexual blood-stage growth", "method": "SYBR Green I", "strain": "3D7", "time": "48 h", "EC50": "284 nM"}
{"Compound": "COC(=O)c1[nH]c(C(=O)OC)c2c1-c1c[nH]c3ccc(Cl)c(c13)C21C=Nc2ccc(Cl)cc21 (racemic)", "read-out": "parasite growth", "method": "SYBR Green", "strain": "3D7", "time": "72 h", "notes": "blood stage", "EC50": "2800 nM"}
{"Compound": "Cc1ccc(NCC(=O)Nc2ccc(F)c(Cl)c2)cc1S(=O)(=O)N1CC2CCC(C1)O2", "read-out": "parasite growth", "strain": "3D7", "notes": "blood stage", "EC50": "760 nM"}
